Measurements of several laboratories.
± gives the spread as reported.

C=CC(=O)N1CC[C@H](n2nc(C#Cc3cc(OC)cc(OC)c3)c3c(N)ncnc32)C1  TEAE incidence (item: Constipation; healthy adults; oral, grade ≥3, pooled treatments): 0%
CN1CC[C@@H](c2c(O)cc(O)c3c(=O)cc(-c4ccc(C(F)(F)F)cc4Cl)oc23)[C@@H]1CO  patients with adverse event (item: Leukopenia; relapsed B-cell malignancies; oral, 150 mg, grade 3-4, intermittent dosing): 0%
C=CC(=O)N1CC[C@H](n2nc(C#Cc3cc(OC)cc(OC)c3)c3c(N)ncnc32)C1  any adverse drug reaction, any grade (human patients; oral, dose not given, QD regimen, adverse drug reaction, with: any phosphate binder): 100%
O.O.O.O.O.O.[Cl-].[Cl-].[Co+2]  cobalt in urine (rat female, urine; oral, 10 mg/kg single, day 3): 247 µg/L
C[C@@H]1NC(=O)[C@H](CCCCNC(=O)CO/N=C/C(=O)NCCCC[C@@H]2NC(=O)[C@@H](Cc3ccccc3)NC(=O)[C@H](CC(=O)O)NC(=O)CNC(=O)[C@H](CCCNC(=N)N)NC2=O)NC(=O)CNC(=O)[C@@H]2CCCN2C(=O)[C@H](CCCCNC(=O)CO/N=C/C(=O)NCCCC[C@@H]2NC(=O)[C@@H](Cc3ccccc3)NC(=O)[C@H](CC(=O)O)NC(=O)CNC(=O)[C@H](CCCNC(=N)N)NC2=O)NC(=O)[C@H](CCCCNC(=O)CCNC(=O)CCNC(=O)CCNC(=O)[C@H](CCCCN)NC(=O)[C@H](Cc2ccccc2)NC(=O)CNC(=O)CN2CCCNCCNCCCNCC2)NC(=O)[C@H](CCCCNC(=O)CO/N=C/C(=O)NCCCC[C@@H]2NC(=O)[C@@H](Cc3ccccc3)NC(=O)[C@H](CC(=O)O)NC(=O)CNC(=O)[C@H](CCCNC(=N)N)NC2=O)NC(=O)CNC(=O)[C@@H]2CCCN2C(=O)[C@H](CCCCNC(=O)CO/N=C/C(=O)NCCCC[C@@H]2NC(=O)[C@@H](Cc3ccccc3)NC(=O)[C@H](CC(=O)O)NC(=O)CNC(=O)[C@H](CCCNC(=N)N)NC2=O)NC1=O [copper-64 labelled]  tissue uptake (biodistribution after PET; mouse, U-87 MG tumour xenograft, liver; intravenous, 24 h): 29.2 ± 1.64 %ID/g
CC(C)[C@@H](CS(=O)(=O)C(C)C)N1C(=O)[C@@](C)(CC(=O)O)C[C@H](c2cccc(Cl)c2)[C@H]1c1ccc(Cl)cc1  tumour concentration (LC-MS/MS; athymic nude mice, PDX subcutaneous, tumour; oral, 10 mg/kg twice daily, 2 h after second dose): 177 nM
CCCCC(=O)c1ccccc1  logD (chromatographic) (pH 7.4): 6.4
c1csc(CNc2cc[nH]n2)c1  PCE to total erythrocyte ratio (micronucleus; CD-1 mouse Hsd:ICR(CD-1), male, bone marrow; oral, 500 mg/kg/day, 3 days): 0.505
COc1ncccc1-c1cnn2ccc(N3CCN(C(=O)OC(C)C)CC3)nc12  drug concentration (mouse nerve ligation model, plasma; oral, 3 mg/kg, 180 min after last dose, repeat dosing day 1): 520 nM
COc1cc2c(Oc3ccc4[nH]c(C)cc4c3F)ccnc2cc1OCC1(N)CC1  grade 1 or 2 gingival bleeding (paediatric recurrent refractory sarcoma; 12 mg): 0%
CCc1ccc(CC/C=C/c2ccc3c(c2)C(=O)CC3)cc1  Lymphocyte percentage (Sprague-Dawley rat, female; oral, 450 mg/kg/day, 14 days): 71.7%
COc1ccc(C[C@@H]2NC(=O)[C@H]([C@@H](C)O)NC(=O)[C@@H]3[C@@H]4CCN3C(=O)[C@@H]3Cc5cn(c6ccc(F)cc56)CCCCCCN(Cc5ccc(cc5)CCNC(=O)[C@]5(C)CCCN5C2=O)C(=O)CCC(=O)N[C@@H](C)C(=O)N[C@H](CNC(=O)CCCCC[N+](C)(C)C)C(=O)N[C@@H](Cc2cccc(c2)CNC(=O)CO4)C(=O)N3)cc1  participants with adverse event (item: Insomnia; humans; concentration not given, Study-003): 3.2%
O=c1cc(-c2ccc(O)c(O)c2)oc2cc(O)cc(O)c12  cumulative urinary excretion (male Sprague-Dawley rats, obese, urine; oral, 100 mg/kg of neohesperidin, 48 h): 460 ± 23.4 ng

Some of these lines once more:
COc1ncccc1-c1cnn2ccc(N3CCN(C(=O)OC(C)C)CC3)nc12  drug concentration (mouse nerve ligation model, plasma; oral, 3 mg/kg, 180 min after last dose, repeat dosing day 1): 520 nM
O=c1cc(-c2ccc(O)c(O)c2)oc2cc(O)cc(O)c12  cumulative urinary excretion (male Sprague-Dawley rats, obese, urine; oral, 100 mg/kg of neohesperidin, 48 h): 460 ± 23.4 ng
